Published values collected from several papers.
Compare with care: the assays were run in different laboratories. “And” joins repeats or separate records; there may be more than shown. ± gives the spread as reported.
DNA dC->dU-editing enzyme APOBEC-3B C-terminal domain: DNA dC->dU-editing enzyme APOBEC-3B, C-terminal domain (Homo sapiens, UniProt Q9UH17)
TDP1: Tyrosyl-DNA phosphodiesterase 1 (TDP1, Homo sapiens, UniProt Q9NUW8)
Lyn: Tyrosine-protein kinase Lyn (Lyn, Mus musculus, UniProt P25911)
RAD51: DNA repair protein RAD51 homolog 1 (RAD51, Homo sapiens, UniProt Q06609)
MAOB: Amine oxidase [flavin-containing] B (MAOB, Homo sapiens, UniProt P27338)
MAPK8: Mitogen-activated protein kinase 8 (MAPK8, Homo sapiens, UniProt P45983)

OCC1CCCN(CCNc2cc(-c3ccccc3)nc3ccnn23)C1 (stereo not drawn)
remaining activity (DNA dC->dU-editing enzyme APOBEC-3B C-terminal domain; deaminase activity, inhibitor; 500 µM): 17.7%

CC(C)[C@@H]1NC(=O)[C@H](Cc2ccccc2)NC(=O)CSC[C@@H](C(N)=O)NC(=O)[C@H](CCC(=O)O)NC(=O)[C@H](CO)NC(=O)[C@H](Cc2c[nH]c3ccccc23)NC(=O)[C@H](C(C)C)NC(=O)[C@H](C(C)C)NC(=O)[C@H](Cc2ccc(O)cc2)NC(=O)[C@H](CC(=O)O)NC(=O)[C@H](Cc2c[nH]c3ccccc23)NC(=O)[C@H](Cc2ccc(O)cc2)NC(=O)[C@H](Cc2c[nH]c3ccccc23)NC(=O)[C@H](CCC(=O)O)NC1=O
remaining activity (IL1R1 (Homo sapiens, UniProt P14778); IL-8 release, antagonist; A-431; 100 µM, 18 h, with: IL-1β 5 ng/mL; baseline: untreated): 88.2%

CC(C=NOCc1ccc(-c2nc3cc(-c4ccccc4)ccn3c2Nc2ccc(C(=O)O)cc2)cc1)=Cc1cccc([N+](=O)[O-])c1O (mixture of isomers)
inhibition (TDP1; enzyme activity, inhibitor; 100 µM, unpurified compound): 76.4%

COc1ccc(NC(=O)Nc2ccc3c(c2)C(=O)N(C(C)CO)CC(C)C(CN(C)Cc2ccc4c(c2)OCO4)O3)cc1 (stereo not drawn)
remaining activity (Lyn; kinase activity, KinaseProfiler; 0.03 µM, species mouse; baseline: control): 103%

Cc1c(C(=O)Nc2ccc(S(=O)(=O)N(C)C3CCN(C)CC3)cc2)oc2c(Cl)cccc12
remaining activity (RAD51; D-loop formation, inhibitor; 10 x RAD52 pairing IC50, 4% DMSO, with: 1 mM calcium chloride; baseline: DMSO control): 97.5 ± 2.5%

CC1CN(c2ccc(C=NOCc3ccc(-c4nc5cc(-c6ccccc6)ccn5c4Nc4ccc(C(=O)O)cc4)cc3)cc2[N+](=O)[O-])CCO1 (stereo not drawn)
inhibition (TDP1; enzyme activity, inhibitor; 100 µM, unpurified compound): 12.2%

COc1ccc(OC)c(Nc2nc(NCCCO)c3ccccc3n2)c1
remaining activity (RAD51; D-loop formation, inhibitor; 10 x RAD52 pairing IC50, 4% DMSO, with: 1 mM calcium chloride; baseline: DMSO control): 75.6 ± 7.1%

CN(C)S(=O)(=O)c1ccc(S(=O)(=O)N2CCC(n3c(=O)[nH]c4ccccc43)CC2)cc1
remaining activity (mfd, C-terminal domain (Escherichia coli, UniProt P30958); ATPase activity, BIOMOL Green; concentration not given): 13.1% and 25.8% and 4.25% and 31%

CCC1(O)CCCN(C(=O)c2ccc(-c3ccc(F)c(C(N)=O)c3)cc2)C1 (stereo not drawn)
remaining activity (DNA dC->dU-editing enzyme APOBEC-3B C-terminal domain; deaminase activity, inhibitor; 500 µM): -8.1%

COC(=O)[C@@]1(C)C=C(C(=O)Nc2cccc(C(=O)Nc3ccc(Nc4nccc(-c5cccnc5)n4)c(C)c3)c2)C(=O)CC1
remaining activity (MAPK1 (Homo sapiens, UniProt P28482); kinase activity, inhibitor; 1.646 µM, unit not given; baseline: no inhibitor): 0.955

CC(C)c1ccc(/C=C/C(=O)c2ccc(S(C)(=O)=O)cc2)cc1
remaining activity (MAOB; enzyme activity, inhibitor; 1 µM): 83.3%

COc1ccc(-c2ccc(C(=O)N(C)CCO)cc2)c(OC)c1
remaining activity (DNA dC->dU-editing enzyme APOBEC-3B C-terminal domain; deaminase activity, inhibitor; 500 µM): 27.5%

Cn1nc(-c2ccc(Cl)cc2)c2cc(C(=O)NCCCN3CCCC3)sc21
remaining activity (RAD51; D-loop formation, inhibitor; 10 x RAD52 pairing IC50, 4% DMSO, with: 1 mM calcium chloride; baseline: DMSO control): 35.3 ± 5.8%

C=C1C[C@@]2(C(=O)OC)C=C(C(=O)Nc3cccc(C(=O)Nc4ccc(Nc5nccc(-c6cccnc6)n5)c(C)c4)c3)C(=O)[C@@H]1C2
remaining activity (MAPK8; kinase activity, inhibitor; 44.44 µM, unit not given, with: 10 mM glutathione; baseline: no inhibitor): 0.0273

CC(C)[C@@H]1NC(=O)[C@H](Cc2ccccc2)NC(=O)CSC[C@@H](C(N)=O)NC(=O)[C@H](CCC(=O)O)NC(=O)[C@H](CO)NC(=O)[C@H](Cc2c[nH]c3cccc(Cl)c23)NC(=O)[C@H](C2CCCCC2)NC(=O)[C@H](C(C)C)NC(=O)[C@H](Cc2ccc(O)cc2)NC(=O)[C@H](CC(=O)O)NC(=O)[C@H](Cc2c[nH]c3ccccc23)NC(=O)[C@H](Cc2ccc(N)nc2)NC(=O)[C@H](Cc2c[nH]c3ccc(Cl)cc23)NC(=O)[C@H](CCC(=O)O)NC1=O
remaining activity (Interleukin-1 receptor-like 2 (IL1RL2, Homo sapiens, UniProt Q9HB29); reporter gene (SEAP), inhibitor, HEK-Blue IL-36R reporter; HEK-Blue IL-36R cells; 0.005 µM, 6 h, with: IL-36β 0.3 ng/mL): 91.1%

CN1CCC[C@@H]1C(=O)N[C@@H](Cc1ccc(-c2ccccc2)cc1)B(O)O
remaining activity (Proteasome component C5/PSMB5 (Homo sapiens, UniProt P20618+P28074); enzyme activity, inhibitor; 1 µM, PA28αβ-activated, Tris buffer, with: Ac-WLA-AMC substrate): 30 ± 2%

COc1cc(C(=O)/C=C/c2ccc(C(C)C)cc2)cc(OC)c1OC
remaining activity (MAOB; enzyme activity, inhibitor; 1 µM): 53.4%

COc1ccccc1-c1ccncc1C(=O)Nc1nnc(OCc2ccc(Cl)cc2)s1
remaining activity (DNA polymerase theta, helicase domain (POLQ, Homo sapiens, UniProt O75417); ATPase activity, ADP-Glo; 0.06 µM, with: ATP 100 µM): 43%

C[C@](C(=O)NC1CCOCC1)(c1cncnc1)N(C(=O)[C@H](F)Cl)c1ccc(OC(F)(F)Cl)cc1
remaining activity (ACE2 (Homo sapiens, UniProt Q9BYF1); enzyme activity, inhibitor; 10 µM): 104%

CCCCN(CC)CCNC(=O)c1cc2c(-c3ccc(Cl)cc3)nn(C)c2s1
remaining activity (RAD51; D-loop formation, inhibitor; 10 x RAD52 pairing IC50, 4% DMSO, with: 1 mM calcium chloride; baseline: DMSO control): 58.6 ± 2.9%

NC(=O)COc1cccc(-c2cccc(C(=O)N3CCC4(CCCC4)C3)c2)c1
remaining activity (DNA dC->dU-editing enzyme APOBEC-3B C-terminal domain; deaminase activity, inhibitor; 500 µM): 16.4%

CCN(CC)CCCN(Cc1cc2cc3c(cc2[nH]c1=O)OCO3)C(=S)NCCCN(C)C
remaining activity (RAD51; D-loop formation, inhibitor; 10 x RAD52 pairing IC50, 4% DMSO, with: 1 mM calcium chloride; baseline: DMSO control): 102 ± 1.1%

COC(=O)[C@]1(C(C)C)C=C(C(=O)Nc2cccc(C(=O)Nc3ccc(Nc4nccc(-c5cccnc5)n4)c(C)c3)c2)C(=O)CC1
remaining activity (MAPK8; kinase activity, inhibitor; 0.06097 µM, unit not given, with: 10 mM glutathione; baseline: no inhibitor): 0.856

Cc1cccc(-c2ccc3nc(NC(=O)C4CCCCC4)nn3c2)c1
remaining activity (EEF2K (Homo sapiens, UniProt O00418); enzyme activity, Dundee kinase panel; 10 µM): 105%

CC(C)c1ccc(/C=C/C(=O)c2ccc(O)cc2)cc1
remaining activity (MAOB; enzyme activity, inhibitor; about 2 × IC50, 30 min preincubation, without dialysis): 42%

CCC1Sc2ccc(S(=O)(=O)CCC(=O)Nc3cccc4ccccc34)cc2NC1=O (stereo not drawn)
remaining activity (P2X purinoceptor 7 (P2rx7, Mus musculus, UniProt Q9Z1M0, A312V); ATP-evoked current, inhibitor, whole-cell patch clamp; HEK293 transfected; 0.1 µM): 77.8%

O=C=[N][Ru-4]123([n]4c5ccc(O)cc5c5c6c(c7cc(F)c[n+]1c7c54)C(=O)NC6=O)[S+]1CC[S+]2CC[S+]3CC1 (stereo not drawn)
remaining activity (Lyn; enzyme activity; 100 nM, mouse enzyme, with: 10 µM ATP; baseline: untreated): 72%

Cc1cnc2nc1Nc1cccc(c1)COC/C=C/COCc1cc(ccc1OCCN1CCOCC1)N2
remaining activity (EGFR (Homo sapiens, UniProt P00533, L861Q); concentration not given; baseline: untreated control): 93%

CC(C)c1ccc(/C=C/C(=O)c2ccc(F)cc2)cc1
remaining activity (MAOB; enzyme activity, inhibitor; about 2 × IC50, 30 min preincubation, without dialysis): 41.4%

O=c1cnnc(Nc2ccc(O)cc2)[nH]1
remaining activity (DNA dC->dU-editing enzyme APOBEC-3B C-terminal domain; deaminase activity, inhibitor; 500 µM): 22.8%

Excerpt of the above:
COc1cc(C(=O)/C=C/c2ccc(C(C)C)cc2)cc(OC)c1OC
remaining activity (MAOB; enzyme activity, inhibitor; 1 µM): 53.4%

COc1ccccc1-c1ccncc1C(=O)Nc1nnc(OCc2ccc(Cl)cc2)s1
remaining activity (DNA polymerase theta, helicase domain (POLQ, Homo sapiens, UniProt O75417); ATPase activity, ADP-Glo; 0.06 µM, with: ATP 100 µM): 43%

C[C@](C(=O)NC1CCOCC1)(c1cncnc1)N(C(=O)[C@H](F)Cl)c1ccc(OC(F)(F)Cl)cc1
remaining activity (ACE2 (Homo sapiens, UniProt Q9BYF1); enzyme activity, inhibitor; 10 µM): 104%

CCCCN(CC)CCNC(=O)c1cc2c(-c3ccc(Cl)cc3)nn(C)c2s1
remaining activity (RAD51; D-loop formation, inhibitor; 10 x RAD52 pairing IC50, 4% DMSO, with: 1 mM calcium chloride; baseline: DMSO control): 58.6 ± 2.9%
